Assay results of several laboratories.
Compare with care: the assays were run in different laboratories. Numbers after ± are the reported error.

SMILES | assay | system | conditions | how to read | endpoint | value
CC[C@H](C)[C@H](NC(=O)[C@H](Cc1ccccc1)NC(=O)[C@H](CCC(=O)O)NC(=O)[C@H](CCCCNC(=O)COCCOCCNC(=O)COCCOCCNC(=O)CC[C@H](NC(=O)CCCCCCCCCCCCCCCCC(=O)O)C(=O)O)NC(=O)[C@H](C)NC(=O)[C@H](C)NC(=O)[C@H](CCC(N)=O)NC(=O)CNC(=O)[C@H](CCC(=O)O)NC(=O)[C@H](CC(C)C)NC(=O)[C@H](Cc1ccc(O)cc1)NC(=O)[C@H](CO)NC(=O)[C@H](CO)NC(=O)[C@@H](NC(=O)[C@H](CC(=O)O)NC(=O)[C@H](CO)NC(=O)[C@@H](NC(=O)[C@H](Cc1ccccc1)NC(=O)[C@@H](NC(=O)CNC(=O)[C@H](CCC(=O)O)NC(=O)C(C)(C)NC(=O)[C@@H](N)Cc1cnc[nH]1)[C@@H](C)O)[C@@H](C)O)C(C)C)C(=O)N[C@@H](C)C(=O)N[C@@H](Cc1c[nH]c2ccccc12)C(=O)N[C@@H](CC(C)C)C(=O)N[C@H](C(=O)N[C@@H](CCCNC(=N)N)C(=O)NCC(=O)N[C@@H](CCCNC(=N)N)C(=O)NCC(=O)O)C(C)C | – | type 2 diabetes patients | dose not given, hypoglycaemic clamp, nadir to recovery | baseline: placebo | diastolic blood pressure difference | 1.9 mm Hg
Cc1cc(-c2nccc3c2ccn3CC(=O)Nc2ccc(-c3cnccn3)cn2)ccn1 | – | human | 15 mg once daily, multiple ascending dose | – | subjects with limb injury | 0%
CC(C)NCC(O)c1ccc(NS(C)(=O)=O)cc1 (racemic) | – | male Hartley guinea pig, anaesthetized | intravenous infusion, 1 mg/kg, 10 min infusion, post-infusion | – | QTc interval | 369 ± 0.8 ms
C/C(O)=C(\C#N)C(=O)Nc1ccc(C(F)(F)F)cc1 | – | CD-1 mice female, whole blood | oral, 30 mg/kg leflunomide daily, 24 h, after dose 10 | – | blood concentration | 251 ± 130 µM
N#Cc1ccc2c(c1)[C@H]1CCCN(C(=O)c3ccc4[nH]cnc4c3)[C@H]1C2 | – | human | 10 mg, end of trial | – | minimum ACTH level | 1.4 pmol/L
O=C(O)CCC(=O)O.[2H]C([2H])([2H])Oc1cc(C)c2[nH]ccc2c1CN1CC[C@@H](C2CC2)C[C@H]1c1ccc(C(=O)O)cc1 | multiple ascending dose | healthy Chinese subjects | 125 mg twice daily | – | subjects with TEAE Constipation | 25%
C=CC(=O)Nc1cc(Nc2ncc(C(=O)OC(C)C)c(-c3cn(C)c4ccccc34)n2)c(OC)cc1N(C)CCN(C)C | two-compartment PK model | mouse | dose not given | – | peripheral volume of distribution | 286 L
Cc1c(-c2ccc(N3CCc4cccc(C(=O)Nc5nc6ccccc6s5)c4C3)nc2C(=O)O)cnn1CC12CC3(C)CC(C)(C1)CC(OCCNCC[C@H](O)CO)(C3)C2 | – | beagle dog, anaesthetised | intravenous infusion, 0.3 mg/kg/min, 60 min | baseline: vehicle | PR interval change | -4 ms
O=C(c1nc2n(n1)[C@H](c1ccccc1)C[C@@H]2F)C1CC1 | – | human | 225 mg single dose | – | fraction excreted in urine 0-72 h | 0 to 0.4%
COc1c(N2C[C@@H]3CCCN[C@@H]3C2)c(F)cc2c(=O)c(C(=O)O)cn(C3CC3)c12 | – | male Hartley guinea pig, anaesthetized | intravenous, 5 mg/kg, baseline before infusion | – | QTc interval | 282 ± 0.3 ms
Cc1ccc([C@@H]2O[C@H](CO)[C@@H](O)[C@H](O)[C@H]2O)cc1Cc1ccc(-c2ccc(F)cc2)s1 | – | Japanese type 2 diabetes patients | 25 mg, day 18, 24 h urine collection | baseline: baseline | urinary chloride excretion change | -44.3 mEq
O=S(=O)(NC1CCCC12OCCO2)c1cccc(Cl)c1O (stereo not drawn) | colloidal aggregate formation, dynamic light scattering | 50 mM potassium phosphate buffer | 200 µM, pH 7.0, 1% DMSO | higher = more aggregation | DLS scattered light intensity | 2.63e+06 counts/s
CCOc1c([C@H](C)n2nc(C)c3c(N)ncnc32)cc(Cl)c(F)c1[C@@H]1CNC(=O)C1 | ECG | previously treated B-cell malignancy patients | oral, 5 mg once daily, baseline QTcF ≤450 ms | – | observations ΔQTcF >30 ≤60 ms | 40%
COc1ccnc(C(=O)O)c1O | soil adsorption | tested soils | geometric mean | – | Freundlich coefficient KF | 219 mL/g
CNCc1ccc(-c2[nH]c3cc(F)cc4c3c2CCNC4=O)cc1 | – | patients | oral, 600 mg twice daily, grade 4 | – | asthenia/fatigue incidence | 0%
O=C1c2ccncc2C(=O)c2c1[nH]c1ccccc21 | – | Sprague-Dawley rat male, plasma | intravenous, 5 mg/kg | – | terminal half-life | 9.9 ± 5.3 h
O=C(c1cccnc1-c1ccncc1)N1CCC(O)(Cc2ccccc2)CC1 | – | healthy Japanese adults, plasma | 200 mg single dose | – | CL/F | 471 L/h
C=CC(=O)Nc1cc(Nc2nccc(-c3cn(C)c4ccccc34)n2)c(OC)cc1N(C)CCN(C)C | storage stability | human plasma | 72 h, -80 °C, medium QC level | – | recovery | 94.5%
O=C(Nc1cnccc1Cl)N1CCN(Cc2ccc3c(c2)OC(F)(F)O3)CC1 | measured: Dizziness | human healthy young men | 10 mg, multiple dose | – | adverse event incidence | 0%
CC(C)(C(=O)N1CCOc2c(C#N)cncc2C1)C(F)F | measured: skin abrasion | human | oral, 15 mg twice daily, 14 days, multiple ascending dose | – | subjects with adverse event | 0%
N#Cc1cc(NC(=O)[C@H]2c3ccccc3C(=O)N(CC(F)(F)F)[C@@H]2c2cccnc2)ccc1F | – | human | oral, fasted, cohorts 1-4, population mean | – | CL | 562 mL/min
CCO[C@H]1CCN(Cc2c(OC)cc(C)c3[nH]ccc23)[C@H](c2ccc(C(=O)O)cc2)C1 | – | PNH patients, active haemolysis | oral, 100 mg, treatment | – | incidence of pyrexia | 0%
CCn1c(=O)c(-c2cc(NC(=O)Nc3ccccc3)c(F)cc2Br)cc2cnc(NC)cc21 | measured: accidental overdose | healthy human, matched to moderate hepatic impairment | oral, 50 mg single dose | – | participants with grade ≥ 3 TEAE | 0%
Cn1c(C(F)(F)F)cc(=O)n(-c2cc(Oc3cccnc3OCC(=O)O)c(Cl)cc2F)c1=O | – | Crl:CD(SD) rats, male, plasma | oral diet, 300 ppm in diet, day 1, 90-day toxicity study | – | AUC(0-24 h) | 7.6 µg·h/mL

SMILES | assay | system | conditions | how to read | endpoint | value
Cn1ncc(S(=O)(=O)NCc2ccc(S(=O)(=O)N3CCOCC3)cc2)c1C(=O)O | colloidal aggregate formation, dynamic light scattering | 50 mM potassium phosphate buffer | 200 µM, pH 7.0, 1% DMSO | higher = more aggregation | DLS scattered light intensity | 759000 counts/s
C=CC(=O)N(C)CCOc1c(N)ncnc1-c1cc(F)cc(NC(=O)c2ccc(C3CC3)cc2F)c1C | – | human, whole blood | oral, 200 mg twice daily, day 1 | – | AUC | 0.464 µg·h/mL
O=S(=O)(Nc1cc(-c2ncn[nH]2)ccc1F)c1cc(Cl)cc(Cl)c1O | colloidal aggregate formation, dynamic light scattering | 50 mM potassium phosphate buffer | 200 µM, pH 7.0, 1% DMSO | higher = more aggregation | DLS scattered light intensity | 360000 counts/s
FC(F)(F)c1ccc(CNc2ccc(Cc3c[nH]c4ncc(Cl)cc34)cn2)cn1 | measured: Diarrhoea | patients with advanced solid tumours | oral, dose not given, grade 1 and 2, possibly related to drug | – | adverse event incidence | 26%
O=C1Cc2cc(CCN3CCN(c4nsc5ccccc45)CC3)c(Cl)cc2N1 | – | male Hartley guinea pig, anaesthetized | intravenous, 1 mg/kg, baseline before infusion | – | QTc interval | 369 ± 0.2 ms
CC(C)[C@H](N)C(=O)NCCCS(=O)(=O)O | – | human both sexes, plasma | oral, 340 mg once daily days 8-14, day 14, fasted capsule | – | AUC(0-12) | 13.8 µg·h/mL
COC(=O)N[C@H](C(=O)N1CCC[C@H]1c1ncc(-c2cc(F)c3c(c2)O[C@@H](c2cnc(C4CC4)s2)n2c-3cc3cc(-c4cnc([C@@H]5CCCN5C(=O)[C@@H](NC(=O)OC)C(C)C)[nH]4)ccc32)[nH]1)C(C)C | – | healthy adult humans | oral, dose not given | baseline: moderate-fat meal over fasted | Ctrough increase | ~88%
COc1ncc(-c2nc3c(n2C(C)C)[C@H](c2ccc(Cl)cc2)N(c2cc(Cl)cn(C)c2=O)C3=O)c(OC)n1 | – | human patients, plasma | oral, 7.5 mg, cycle 1 day 1, low-dose | – | median Tmax | 5.8 h
O=C(CCCN1CCC(O)(c2ccc(Cl)cc2)CC1)c1ccc(F)cc1 | – | male Hartley guinea pig, anaesthetized | intravenous infusion, 1 mg/kg, 10 min infusion, post-infusion | – | QTc interval | 401 ± 0.2 ms
CNC(=O)c1ccc(-c2cnc3ncc(Cc4ccc5ncccc5c4)n3n2)cc1F | phase 1 clinical trial, measured: blood creatinine increased | dose escalation cohort | oral, dose not given, grade 3 or 4 | – | adverse event incidence | 0%
Cc1c(C(=O)O)ccc2c3n(nc12)[C@@H]1[C@H](C3)N(CC2CC2)[C@@]2(C(=O)Nc3cc(Cl)ccc32)[C@H]1c1cccc(Cl)c1F | – | human patients phase Ia | oral, dose not given, all grades, all patients | – | gastroesophageal reflux incidence | 13%
CCn1cc(C(=O)N2CCOCC2)c(=O)c2cc(NC3Cc4ccccc4C3)cnc21 | – | human, fasted, plasma | oral, 900 mg single dose, tablet, arithmetic mean | – | AUC(0-last) | 26.4 µg·h/mL
COc1ccnc(C(N)=O)c1O | soil adsorption | tested soils | geometric mean | – | Freundlich coefficient KF | 16.5 mL/g
O=C(O)c1occc1S(=O)(=O)NC1CCSc2c(F)cccc21 (stereo not drawn) | colloidal aggregate formation, dynamic light scattering | 50 mM potassium phosphate buffer | 200 µM, pH 7.0, 1% DMSO | higher = more aggregation | DLS scattered light intensity | 284000 counts/s
CCN1/C(=C/C(C)=O)Sc2ccc(F)cc21 | – | cynomolgus monkey | oral, 30 mg/kg, 24 h post-dose | – | QRS duration | 35 ± 1 ms
O=C(Nc1nc2cccc(-c3ccc(CN4CCS(=O)(=O)CC4)cc3)n2n1)C1CC1 | measured: arthropod sting allergy | rheumatoid arthritis patients | oral, 300 mg once daily, 4 weeks, any relatedness | – | treatment-emergent adverse events | 0%
O=C(CCCN1CC=C(n2c(=O)[nH]c3ccccc32)CC1)c1ccc(F)cc1 | – | male Hartley guinea pig, anaesthetized | intravenous infusion, 0.1 mg/kg, 10 min infusion, post-infusion | – | QTc interval | 340 ± 0.9 ms
Cc1cc(Nc2ccc(S(F)(F)(F)(F)F)cc2)n2nc(C(C)(F)F)nc2n1 | – | Plasmodium falciparum malaria patients | oral, 250 mg | – | adverse event Chills | 0%
Cl.[2H]C([2H])([2H])CC(=O)c1cnc(NC(=O)C2CC2)cc1Nc1cccc(-c2ncn(C([2H])([2H])[2H])n2)c1OC | – | human, fasted, multiple dose | oral, 10 mg once daily, tablet, day 14, geometric mean | – | CL/F | 12.6 L/h
CC(C)CCC[C@@H](C)[C@H]1CC[C@H]2[C@@H]3C(O)CC4=CC(=O)CC[C@]4(C)[C@H]3CC[C@]12C (stereo partly drawn) | – | human, plasma | endogenous baseline diurnal | – | daily mean concentration | 64.8 ± 14.1 nM
Oc1ccc(/C=C/c2cc(O)cc(O)c2)cc1 | – | rat, azoxymethane-injected, blood | in vivo, 100 mg/kg, at sacrifice | – | r-GT level | < 3 IU/L
CC(CC(C)(C)c1ccccc1)NS(=O)(=O)c1cccc(Cl)c1O (stereo not drawn) | colloidal aggregate formation, dynamic light scattering | 50 mM potassium phosphate buffer | 200 µM, pH 7.0, 1% DMSO | higher = more aggregation | DLS scattered light intensity | 831000 counts/s
CCN1CCN(Cc2ccc(Nc3ncc(F)c(-c4cc(F)c5nc6n(c5c4)[C@H](C)CCC6)n3)nc2)CC1 | – | human, plasma | 500 mg single dose, median | – | Tmax | 17 h
Cc1nnc(SCC2=C(C(=O)O)N3C(=O)[C@@H](NC(=O)Cn4cnnn4)[C@H]3SC2)s1 | – | human whole blood | concentration not given, 8 h, 4 °C | – | deviation from nominal concentration | -5%

A few entries again:
SMILES | assay | system | conditions | how to read | endpoint | value
FC(F)(F)c1ccc(CNc2ccc(Cc3c[nH]c4ncc(Cl)cc34)cn2)cn1 | measured: Diarrhoea | patients with advanced solid tumours | oral, dose not given, grade 1 and 2, possibly related to drug | – | adverse event incidence | 26%
O=C1Cc2cc(CCN3CCN(c4nsc5ccccc45)CC3)c(Cl)cc2N1 | – | male Hartley guinea pig, anaesthetized | intravenous, 1 mg/kg, baseline before infusion | – | QTc interval | 369 ± 0.2 ms
CC(C)[C@H](N)C(=O)NCCCS(=O)(=O)O | – | human both sexes, plasma | oral, 340 mg once daily days 8-14, day 14, fasted capsule | – | AUC(0-12) | 13.8 µg·h/mL
COC(=O)N[C@H](C(=O)N1CCC[C@H]1c1ncc(-c2cc(F)c3c(c2)O[C@@H](c2cnc(C4CC4)s2)n2c-3cc3cc(-c4cnc([C@@H]5CCCN5C(=O)[C@@H](NC(=O)OC)C(C)C)[nH]4)ccc32)[nH]1)C(C)C | – | healthy adult humans | oral, dose not given | baseline: moderate-fat meal over fasted | Ctrough increase | ~88%
COc1ncc(-c2nc3c(n2C(C)C)[C@H](c2ccc(Cl)cc2)N(c2cc(Cl)cn(C)c2=O)C3=O)c(OC)n1 | – | human patients, plasma | oral, 7.5 mg, cycle 1 day 1, low-dose | – | median Tmax | 5.8 h
O=C(CCCN1CCC(O)(c2ccc(Cl)cc2)CC1)c1ccc(F)cc1 | – | male Hartley guinea pig, anaesthetized | intravenous infusion, 1 mg/kg, 10 min infusion, post-infusion | – | QTc interval | 401 ± 0.2 ms
CNC(=O)c1ccc(-c2cnc3ncc(Cc4ccc5ncccc5c4)n3n2)cc1F | phase 1 clinical trial, measured: blood creatinine increased | dose escalation cohort | oral, dose not given, grade 3 or 4 | – | adverse event incidence | 0%
